Measurements of several laboratories.
A part holds a random share of what one study measured. Positions count from the first letter of the parent shown.

Set 1 — target: CCNB3, cyclin fold, Cln2 fusion (human); method: yeast growth competition, sequencing; sample: yeast; notes: strong parent motif; baseline: not given; reading: higher = stronger binding; measurement: normalised enrichment score
Starting sequence: viral docking peptide; KGVKRKLFAEDSS; partner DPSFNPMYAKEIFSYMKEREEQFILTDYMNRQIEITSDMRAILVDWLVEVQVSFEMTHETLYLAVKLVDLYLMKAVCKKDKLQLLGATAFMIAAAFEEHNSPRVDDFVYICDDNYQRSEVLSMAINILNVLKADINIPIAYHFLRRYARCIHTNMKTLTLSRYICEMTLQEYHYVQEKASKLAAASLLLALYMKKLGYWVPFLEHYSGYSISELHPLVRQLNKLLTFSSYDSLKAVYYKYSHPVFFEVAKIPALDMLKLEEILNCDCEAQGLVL
Variant = KGVKFKLFAEDSS [R5F]; result = 0.306
Variant = KGVLRKLFAEDSS [K4L]; result = 0.462
Variant = KGVKRKLFAEDCS [S12C]; result = 3.11
Variant = KGVKRKLYAEDSS [F8Y]; result = 0.497
Variant = KGVKRKLFALDSS [E10L]; result = 1.68
Variant = KGVKRKLFQEDSS [A9Q]; result = 3.47
Variant = KGVKYKLFAEDSS [R5Y]; result = 0.133
Variant = KGVKRKLFASDSS [E10S]; result = 2.02
Variant = KGVKRKLFWEDSS [A9W]; result = 1.14
Variant = KGVKRKLTAEDSS [F8T]; result = -0.179
Variant = KGVKRKMFAEDSS [L7M]; result = 0.701
Variant = KGVKRKLFAECSS [D11C]; result = 2.27
Variant = KGVKRKLFAEDKS [S12K]; result = 2.54
Variant = KGVKRKLFAEDAS [S12A]; result = 2.62
Variant = KGVKRKLFKEDSS [A9K]; result = 2.35
Variant = KGVKRKLFAEISS [D11I]; result = 1.96

Set 2 — target: MAFG, bZIP domain (human); method: DHFR protein complementation; sample: yeast; baseline: wild-type JUN-FOS pair; reading: higher = stronger binding; measurement: binding fitness
Notes: single substitutions, most at no-binding floor
Starting sequence: JUN, bZIP domain (human); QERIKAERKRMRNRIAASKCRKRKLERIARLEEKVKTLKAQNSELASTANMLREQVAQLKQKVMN; partner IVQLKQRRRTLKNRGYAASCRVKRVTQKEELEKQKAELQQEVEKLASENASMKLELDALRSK
Variant = T37L; result = -1.32 natural log
Variant = K36V; result = -1.45 natural log
Variant = M51G; result = -1.37 natural log
Variant = S43K; result = -1.29 natural log
Variant = R30A; result = -1.33 natural log
Variant = E33I; result = -0.985 natural log
Variant = R30K; result = -1.41 natural log
Variant = T48E; result = -1.29 natural log

Set 3 — target: Sox, HMG box (Pigoraptor chileana); method: Spec-seq; molecule type: double-stranded DNA, one strand shown; sample: in vitro; tested at: not given; notes: whole probe, mean of replicates; baseline: not given; reading: lower = stronger binding; measurement: relative binding energy; all sequences stand within: GAGTCGTCTCGTCAGCAC … CCGTAGAGCACTCAGGTC
Target sequence (chain): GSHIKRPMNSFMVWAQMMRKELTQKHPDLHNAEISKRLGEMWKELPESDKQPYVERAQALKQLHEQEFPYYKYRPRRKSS
Oligonucleotide = CATTTCA; result = 0.456 ln ratio
Oligonucleotide = CATAGCA; result = -0.183 ln ratio
Oligonucleotide = CATTAGG; result = 0.0673 ln ratio
Oligonucleotide = ACCTGTT; result = -0.705 ln ratio
Oligonucleotide = CACTGTT; result = -1.69 ln ratio
Oligonucleotide = CATCAAG; result = -0.0146 ln ratio
Oligonucleotide = CCGTGTT; result = 0.321 ln ratio
Oligonucleotide = GCGCGTT; result = 1.4 ln ratio

Single results of other studies
Starting sequence: PafA, mature enzyme, eGFP fusion (Elizabethkingia meningoseptica, UniProt Q9KJX5); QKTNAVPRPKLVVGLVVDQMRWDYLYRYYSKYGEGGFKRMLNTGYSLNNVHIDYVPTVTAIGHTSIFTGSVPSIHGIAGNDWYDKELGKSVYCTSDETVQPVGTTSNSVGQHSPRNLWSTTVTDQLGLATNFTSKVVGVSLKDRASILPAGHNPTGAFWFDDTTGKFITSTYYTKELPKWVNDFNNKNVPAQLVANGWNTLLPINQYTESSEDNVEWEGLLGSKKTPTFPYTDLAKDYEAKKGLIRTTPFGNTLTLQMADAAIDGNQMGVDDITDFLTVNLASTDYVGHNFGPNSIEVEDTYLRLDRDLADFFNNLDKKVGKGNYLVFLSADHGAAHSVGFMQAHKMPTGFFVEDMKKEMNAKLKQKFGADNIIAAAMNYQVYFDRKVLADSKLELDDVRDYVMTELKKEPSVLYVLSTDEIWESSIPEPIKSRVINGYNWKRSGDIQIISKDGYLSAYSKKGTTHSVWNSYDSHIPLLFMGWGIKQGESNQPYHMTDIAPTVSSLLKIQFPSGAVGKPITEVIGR
Variant = S95G; target = tungstate, free oxyanion; test = microfluidic competitive inhibition; system = in vitro, cell-free expressed; conditions = not given, derived from inhibition constants, unchanged parent 2230 nM; how to read = lower = stronger binding; measurement = oxyanion analog dissociation constant; result = 2.15 µM
